Measurements collected from several papers.
Compare with care: the assays were run in different laboratories. Numbers after ± are the reported error.
Chain of UniProt P14416 (whole entry, looked up): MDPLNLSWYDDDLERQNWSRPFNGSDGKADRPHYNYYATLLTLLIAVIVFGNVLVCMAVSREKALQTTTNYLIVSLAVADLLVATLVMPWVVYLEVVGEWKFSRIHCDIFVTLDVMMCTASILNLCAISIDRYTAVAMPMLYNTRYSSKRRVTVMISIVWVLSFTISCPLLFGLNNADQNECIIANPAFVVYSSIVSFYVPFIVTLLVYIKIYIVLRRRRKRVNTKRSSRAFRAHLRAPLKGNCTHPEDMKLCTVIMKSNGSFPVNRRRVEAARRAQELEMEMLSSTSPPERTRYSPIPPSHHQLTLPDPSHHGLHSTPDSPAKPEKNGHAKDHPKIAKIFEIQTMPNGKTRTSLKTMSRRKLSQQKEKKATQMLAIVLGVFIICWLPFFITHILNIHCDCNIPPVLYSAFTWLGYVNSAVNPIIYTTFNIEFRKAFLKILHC
Chain of UniProt P28222 (whole entry, looked up): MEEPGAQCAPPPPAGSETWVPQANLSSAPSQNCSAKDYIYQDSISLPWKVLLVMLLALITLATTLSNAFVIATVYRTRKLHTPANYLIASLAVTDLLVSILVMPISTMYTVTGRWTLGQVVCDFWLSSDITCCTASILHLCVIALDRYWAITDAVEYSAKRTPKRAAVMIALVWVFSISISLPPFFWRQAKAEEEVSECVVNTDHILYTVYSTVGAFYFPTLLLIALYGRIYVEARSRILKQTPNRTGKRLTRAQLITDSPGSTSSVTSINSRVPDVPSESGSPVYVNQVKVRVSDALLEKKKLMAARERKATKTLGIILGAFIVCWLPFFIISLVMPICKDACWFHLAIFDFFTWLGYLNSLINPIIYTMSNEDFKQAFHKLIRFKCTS
Chain of UniProt P0DMS8 (whole entry, looked up): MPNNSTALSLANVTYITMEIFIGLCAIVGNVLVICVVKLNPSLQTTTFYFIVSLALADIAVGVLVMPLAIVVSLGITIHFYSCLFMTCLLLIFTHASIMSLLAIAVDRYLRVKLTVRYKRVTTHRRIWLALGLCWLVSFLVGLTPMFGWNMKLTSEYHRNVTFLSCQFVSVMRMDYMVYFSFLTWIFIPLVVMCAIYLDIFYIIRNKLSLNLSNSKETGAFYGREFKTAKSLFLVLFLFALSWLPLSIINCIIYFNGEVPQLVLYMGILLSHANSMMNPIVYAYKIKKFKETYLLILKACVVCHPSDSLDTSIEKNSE
Chain of UniProt Q9Y5N1 (whole entry, looked up): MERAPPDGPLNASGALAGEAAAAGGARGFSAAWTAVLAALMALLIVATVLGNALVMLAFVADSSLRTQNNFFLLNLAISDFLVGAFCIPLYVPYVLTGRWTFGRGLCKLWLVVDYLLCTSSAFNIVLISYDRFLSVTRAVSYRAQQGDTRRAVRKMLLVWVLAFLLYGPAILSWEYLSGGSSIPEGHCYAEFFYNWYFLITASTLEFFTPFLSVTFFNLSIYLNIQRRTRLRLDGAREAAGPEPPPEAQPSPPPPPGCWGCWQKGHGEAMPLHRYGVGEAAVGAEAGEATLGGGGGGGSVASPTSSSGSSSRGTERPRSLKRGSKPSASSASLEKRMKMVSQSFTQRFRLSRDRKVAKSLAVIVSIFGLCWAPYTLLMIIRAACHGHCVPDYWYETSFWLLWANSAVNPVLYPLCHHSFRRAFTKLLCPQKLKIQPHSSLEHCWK
Chain of UniProt P41145 (whole entry, looked up): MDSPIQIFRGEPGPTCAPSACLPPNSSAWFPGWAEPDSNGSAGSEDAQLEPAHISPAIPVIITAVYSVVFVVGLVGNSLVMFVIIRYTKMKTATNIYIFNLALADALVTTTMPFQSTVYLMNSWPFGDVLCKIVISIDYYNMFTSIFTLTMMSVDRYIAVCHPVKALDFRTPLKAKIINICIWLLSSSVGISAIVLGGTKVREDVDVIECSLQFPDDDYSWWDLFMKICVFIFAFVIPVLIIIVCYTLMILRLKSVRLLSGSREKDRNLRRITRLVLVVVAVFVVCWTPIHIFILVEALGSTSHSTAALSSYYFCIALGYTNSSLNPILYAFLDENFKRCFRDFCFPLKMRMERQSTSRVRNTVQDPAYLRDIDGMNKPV
Chain of UniProt O14757 (whole entry, looked up): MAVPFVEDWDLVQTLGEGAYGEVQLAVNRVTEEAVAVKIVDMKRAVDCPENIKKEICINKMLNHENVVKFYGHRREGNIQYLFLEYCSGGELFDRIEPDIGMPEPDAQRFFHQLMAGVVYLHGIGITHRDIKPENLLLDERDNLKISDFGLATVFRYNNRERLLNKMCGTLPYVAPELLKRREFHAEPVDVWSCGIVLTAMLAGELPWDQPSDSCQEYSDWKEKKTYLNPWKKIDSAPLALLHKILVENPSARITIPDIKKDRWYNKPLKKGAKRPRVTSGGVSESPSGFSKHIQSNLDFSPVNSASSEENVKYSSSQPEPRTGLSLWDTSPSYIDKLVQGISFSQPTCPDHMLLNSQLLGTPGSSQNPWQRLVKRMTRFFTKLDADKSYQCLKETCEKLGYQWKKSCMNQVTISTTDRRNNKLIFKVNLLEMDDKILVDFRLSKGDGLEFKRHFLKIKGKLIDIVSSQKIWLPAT
Chain of UniProt Q9UQB9 (whole entry, looked up): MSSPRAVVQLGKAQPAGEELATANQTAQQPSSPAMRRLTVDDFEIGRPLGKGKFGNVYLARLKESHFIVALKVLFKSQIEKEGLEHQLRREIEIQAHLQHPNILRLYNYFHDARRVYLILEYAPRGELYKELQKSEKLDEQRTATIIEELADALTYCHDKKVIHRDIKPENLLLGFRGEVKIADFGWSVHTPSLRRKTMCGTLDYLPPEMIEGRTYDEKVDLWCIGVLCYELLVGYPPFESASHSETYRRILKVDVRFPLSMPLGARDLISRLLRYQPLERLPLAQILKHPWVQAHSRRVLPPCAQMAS
Chain of UniProt Q01726 (whole entry, looked up): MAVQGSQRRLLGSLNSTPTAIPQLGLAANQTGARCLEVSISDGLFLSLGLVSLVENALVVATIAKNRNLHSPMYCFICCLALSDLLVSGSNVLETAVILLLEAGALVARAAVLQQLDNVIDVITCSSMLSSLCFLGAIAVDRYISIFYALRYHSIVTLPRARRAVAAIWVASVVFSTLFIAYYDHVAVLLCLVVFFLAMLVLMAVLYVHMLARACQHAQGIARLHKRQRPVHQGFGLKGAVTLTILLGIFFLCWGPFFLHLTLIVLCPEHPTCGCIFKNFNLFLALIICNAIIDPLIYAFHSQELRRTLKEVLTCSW
Chain of UniProt P35462 (whole entry, looked up): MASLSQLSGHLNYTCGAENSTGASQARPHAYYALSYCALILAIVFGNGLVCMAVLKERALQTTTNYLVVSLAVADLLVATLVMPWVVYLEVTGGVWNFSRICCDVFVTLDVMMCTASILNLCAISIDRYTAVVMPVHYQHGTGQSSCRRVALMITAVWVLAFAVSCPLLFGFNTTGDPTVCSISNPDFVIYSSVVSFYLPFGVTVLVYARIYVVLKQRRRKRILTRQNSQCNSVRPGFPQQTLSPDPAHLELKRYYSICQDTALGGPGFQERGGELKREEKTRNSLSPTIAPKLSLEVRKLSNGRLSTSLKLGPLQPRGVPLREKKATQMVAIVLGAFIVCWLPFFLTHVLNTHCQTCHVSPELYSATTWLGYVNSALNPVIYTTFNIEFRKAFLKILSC
Chain of UniProt P23977 (whole entry, looked up): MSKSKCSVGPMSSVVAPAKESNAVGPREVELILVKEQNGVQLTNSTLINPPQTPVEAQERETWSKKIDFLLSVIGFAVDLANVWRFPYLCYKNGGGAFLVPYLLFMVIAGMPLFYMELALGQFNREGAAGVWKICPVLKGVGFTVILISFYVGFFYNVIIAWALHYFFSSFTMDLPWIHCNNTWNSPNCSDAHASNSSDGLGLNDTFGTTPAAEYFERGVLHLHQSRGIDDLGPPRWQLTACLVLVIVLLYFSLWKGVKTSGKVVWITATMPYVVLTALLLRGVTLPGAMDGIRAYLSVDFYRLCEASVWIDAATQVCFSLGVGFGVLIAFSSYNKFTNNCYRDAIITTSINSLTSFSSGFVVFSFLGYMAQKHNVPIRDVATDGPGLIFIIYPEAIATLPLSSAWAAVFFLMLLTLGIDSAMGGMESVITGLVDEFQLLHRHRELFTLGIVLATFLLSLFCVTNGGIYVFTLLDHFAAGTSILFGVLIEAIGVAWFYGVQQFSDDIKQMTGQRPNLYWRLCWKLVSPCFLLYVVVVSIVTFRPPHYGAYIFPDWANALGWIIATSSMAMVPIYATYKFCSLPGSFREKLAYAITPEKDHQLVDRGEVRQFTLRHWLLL
Chain of UniProt P01317 (whole entry, looked up): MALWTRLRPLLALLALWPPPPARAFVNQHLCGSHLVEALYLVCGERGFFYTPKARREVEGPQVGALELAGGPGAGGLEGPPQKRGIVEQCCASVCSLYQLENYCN
Chain of UniProt P36544 (whole entry, looked up): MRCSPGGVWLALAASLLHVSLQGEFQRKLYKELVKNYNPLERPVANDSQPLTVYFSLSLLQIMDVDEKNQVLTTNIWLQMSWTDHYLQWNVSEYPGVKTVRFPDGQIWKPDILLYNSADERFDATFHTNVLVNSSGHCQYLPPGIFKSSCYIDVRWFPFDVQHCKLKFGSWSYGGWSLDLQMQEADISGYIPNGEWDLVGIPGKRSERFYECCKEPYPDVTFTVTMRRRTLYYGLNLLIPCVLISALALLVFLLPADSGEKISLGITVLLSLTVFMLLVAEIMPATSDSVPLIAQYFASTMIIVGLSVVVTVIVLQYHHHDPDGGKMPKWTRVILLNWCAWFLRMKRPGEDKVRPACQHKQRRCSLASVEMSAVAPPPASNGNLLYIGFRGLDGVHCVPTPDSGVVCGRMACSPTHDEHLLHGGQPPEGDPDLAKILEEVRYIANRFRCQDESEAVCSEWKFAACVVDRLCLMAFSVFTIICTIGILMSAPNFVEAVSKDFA

Substance = CN[C@@H]1C[C@H]2O[C@@](C)([C@@H]1OC)n1c3ccccc3c3c4c(c5c6ccccc6n2c5c31)C(=O)NC4; target or system = Serine/threonine-protein kinase Chk1 (CHEK1, Homo sapiens, UniProt O14757); assay = KINOMEscan competition binding; conditions = 0.05 µM; scale = reference: control; measurement = remaining binding; result = 0%
Substance = NCCc1c[nH]c2ccc(O)cc12; target or system = 5-hydroxytryptamine receptor 1B (HTR1B, Homo sapiens, UniProt P28222); assay = binding, antagonist, radioligand binding; measurement = Hill coefficient; result = 0.4
Substance = COC(=O)[C@H]1[C@@H](OC(=O)c2ccccc2)C[C@@H]2CC[C@H]1N2C; target or system = Na+ channel rabbit brain; assay = BTX-activated channels; scale = reference: Kd (+) over Kd (-); measurement = selectivity ratio; result = ~20
Substance = CCCN(CCC)C1CCc2ccc(O)cc2C1 (stereo not drawn); target or system = D(2) dopamine receptor (DRD2, Homo sapiens, UniProt P14416); assay = binding, agonist, radioligand binding; measurement = Hill coefficient; result = 0.6
Substance = CC(=O)NCC(=O)N1CCC[C@H]1C(=O)N[C@@H](CC(=O)O)C(=O)N[C@H]1CSSC[C@@H](C(=O)N[C@@H](C)C(=O)N[C@@H](Cc2ccccc2)C(=O)N[C@@H](Cc2c[nH]cn2)C(N)=O)NC(=O)[C@H](Cc2c[nH]c3ccccc23)NC(=O)[C@H](C(C)C)NC(=O)[C@H](CC(C)C)NC(=O)[C@H](CCC(=O)O)NC(=O)CNC(=O)[C@H](CCCCN)NC(=O)[C@H](Cc2c[nH]cn2)NC(=O)[C@H](Cc2ccc(O)cc2)NC(=O)[C@H](C)NC1=O; target or system = Immunoglobulin heavy constant gamma 1 (IGHG1, Homo sapiens, UniProt P01857); assay = binding, SPR; conditions = pH 7.4, added: immobilized Herceptin; measurement = Kd; result = 622 ± 5 nM
Substance = C[C@H](N)C(=O)c1ccccc1; target or system = Sodium-dependent dopamine transporter (Slc6a3, Rattus norvegicus, UniProt P23977); assay = dopamine uptake, inhibitor; test system = rat caudate synaptosomes; conditions = added: 5 nM [3H]dopamine; measurement = IC50; result = 357 nM
Substance = O=C(N[C@H](Cc1ccc(Cl)cc1)C(=O)N1CCC(Cn2cncn2)(C2CCCCC2)CC1)[C@H]1Cc2ccccc2CN1; target or system = Melanocyte-stimulating hormone receptor (MC1R, Homo sapiens, UniProt Q01726); assay = cAMP production, agonist; test system = A-375; scale = reference: MT-II; measurement = efficacy; result = 49 ± 4%
Substance = Br.CCCN(CCC)C1CCc2ccc(O)cc2C1 (racemic); target or system = D(3) dopamine receptor (DRD3, Homo sapiens, UniProt P35462); assay = radioligand binding; conditions = concentration not given, off-target panel; measurement = inhibition; result = 98.4%
Substance = CNC(=O)[C@H]1O[C@@H](n2cnc3c(NCc4cccc(I)c4)nc(Cl)nc32)[C@H](O)[C@@H]1O; target or system = Adenosine receptor A3 (ADORA3, Homo sapiens, UniProt P0DMS8); assay = radioligand displacement; test system = CHO membranes; conditions = added: [3H]PSB-11, 1 mM GTP; measurement = Hill slope; result = -1.1 ± 0.1
Substance = CCN(CCO)CCCOc1ccc2c(Nc3cc(CC(=O)Nc4cccc(F)c4)[nH]n3)ncnc2c1; target or system = Aurora kinase C (AURKC, Homo sapiens, UniProt Q9UQB9); assay = degradation, degrader, Western blot, item: AURKC; test system = HPAF-II; conditions = 1 µM, 24 h; measurement = protein level; result = no effect
Substance = CCN1C[C@]2(COC(=O)c3ccccc3N3C(=O)C[C@H](C)C3=O)CC[C@H](OC)[C@@]34[C@@H]5C[C@H]6[C@H](OC)[C@@H]5[C@](O)(C[C@@H]6OC)[C@](O)([C@@H](OC)[C@H]23)[C@@H]14; target or system = Neuronal acetylcholine receptor subunit alpha-7 (CHRNA7, Homo sapiens, UniProt P36544); assay = ion current, antagonist, whole-cell patch clamp; test system = HEK-293T expressing CHRNA7; conditions = concentration not given; measurement = inhibition; result = 99.3%
Substance = CCCC[C@H]1NC(=O)[C@H](Cc2ccc(F)cc2)NC(=O)[C@H](CCCNC(=N)N)NC(=O)[C@@H](Cc2ccc3ccccc3c2)NC(=O)[C@H](CCCNC(=N)N)NC(=O)[C@H](CCCNC(=N)N)NC(=O)[C@H](CCC(N)=O)NC(=O)C[C@@H](CCc2ccccc2)NC(=O)[C@@H]2CCCCN2C(=O)C(=O)C(C)(C)COC1=O; target or system = TCPTP; assay = fluorescence polarization; conditions = up to 20 µM; measurement = binding; result = no binding
Substance = insulin; target or system = Insulin (INS, Bos taurus, UniProt P01317); assay = circular dichroism; conditions = 0 min; measurement = β-sheet content; result = 21.5%
Substance = CC[C@H](C)[C@H](NC(=O)[C@H](CCCCN)NC(=O)[C@H](CCC(N)=O)NC(=O)[C@H](Cc1ccccc1)NC(=O)[C@@H](NC(=O)[C@H](CCCCN)NC(=O)[C@H](CCCCN)NC(=O)[C@H](CC(C)C)NC(=O)[C@H](C)NC(=O)[C@H](CC(N)=O)NC(=O)[C@@H](N)CC(C)C)C(C)C)C(=O)N[C@@H](Cc1c[nH]cn1)C(=O)N[C@@H](CCC(=O)O)C(=O)N[C@@H](C)C(N)=O; target or system = Gram-positive and Gram-negative bacteria; measurement = geometric mean MIC; result = 24.7 µM
Substance = C[C@H]1[C@@H](CC(C[C@H]2O[C@@H]3C[C@]4(C)CC[C@H]5[C@H](C)CC[C@@H]([C@H]2C)[C@@]35OO4)CS(=O)(=O)c2ccc(COC(=O)N(C)C)cc2)O[C@@H]2C[C@]3(C)CC[C@H]4[C@H](C)CC[C@@H]1[C@@]24OO3 (stereo partly drawn); target or system = Plasmodium berghei; test system = ANKA, infected mice; conditions = oral, 54 mg/kg single dose, 24 h post-infection; measurement = mean survival time; result = 22.8 days
Substance = Oc1ccc2c3c1O[C@H]1c4[nH]c5c(c4C[C@@]4(O)[C@@H](C2)N(CC2CC2)CC[C@]314)C[C@@]1(O)[C@H]2Cc3ccc(O)c4c3[C@@]1(CCN2CC1CC1)[C@H]5O4; target or system = Kappa-type opioid receptor (OPRK1, Homo sapiens, UniProt P41145); conditions = added: 0 mM sodium; measurement = Emax; result = 28.1 ± 4.62%
Substance = C[C@H]1[C@@H](CC(C[C@H]2O[C@@H]3C[C@]4(C)CC[C@H]5[C@H](C)CC[C@@H]([C@H]2C)[C@@]35OO4)CS(=O)(=O)c2ccc(CO)cc2)O[C@@H]2C[C@]3(C)CC[C@H]4[C@H](C)CC[C@@H]1[C@@]24OO3 (stereo partly drawn); target or system = Plasmodium berghei; test system = ANKA, infected mice; conditions = oral, 54 mg/kg single dose, 24 h post-infection; measurement = mean survival time; result = 20.4 days
Substance = C[C@@H](N)Cc1c[nH]cn1.Cl.Cl; target or system = Histamine H3 receptor (HRH3, Homo sapiens, UniProt Q9Y5N1); assay = radioligand binding; conditions = concentration not given, off-target panel; measurement = inhibition; result = 100%

Excerpt of the above:
Substance = COC(=O)[C@H]1[C@@H](OC(=O)c2ccccc2)C[C@@H]2CC[C@H]1N2C; target or system = Na+ channel rabbit brain; assay = BTX-activated channels; scale = reference: Kd (+) over Kd (-); measurement = selectivity ratio; result = ~20
Substance = Oc1ccc2c3c1O[C@H]1c4[nH]c5c(c4C[C@@]4(O)[C@@H](C2)N(CC2CC2)CC[C@]314)C[C@@]1(O)[C@H]2Cc3ccc(O)c4c3[C@@]1(CCN2CC1CC1)[C@H]5O4; target or system = Kappa-type opioid receptor (OPRK1, Homo sapiens, UniProt P41145); conditions = added: 0 mM sodium; measurement = Emax; result = 28.1 ± 4.62%
